Assay results of several laboratories.
Each line is one published result; not all experiments were run side by side. ± marks the error that the study gave.

Compound | test | system | conditions | how to read | measurement | value
C/C(=N\c1ccc(O)cc1)c1cc2ccccc2n1C | ultrafiltration | rat plasma | 1000 ng/mL, 1 h, 37 °C | – | fu | 0.014
Cc1nc2ccc(F)cc2n1-c1nc(N)c(F)c(Nc2ccc(C(F)(F)F)cc2)n1 | – | leiomyosarcoma patients | 200 mg twice weekly, added: dacarbazine 1000 mg/m^2 | relative to: subjects | myelosuppression-related DLT | 25%
CCCCC1=NC2(CCCC2)C(=O)N1Cc1ccc(-c2ccccc2S(=O)(=O)Nc2noc(C)c2C)c(COCC)c1 | – | healthy adult volunteers, plasma | oral, 800 mg, 14 days repeated dosing, fasted, crushed tablet | – | Cmax | 9810 ng/mL
COCCN(C)C(=O)c1ccc([C@H]2[C@@H](F)[C@@H](F)C[C@@H](F)[C@H]2F)cc1 | liver microsome stability | human liver microsomes | 1 µM, without NADPH | – | hepatic clearance | 3.9 mL/min/kg
C=CC(=O)Nc1cc(Nc2nccc(-c3cn(C4CC4)c4ccccc34)n2)c(OC)cc1N(C)CCN(C)C | freeze-thaw stability | rat plasma | 160 ng/mL, three freeze-thaw cycles | relative to: nominal concentration | relative error | -0.9%
Cn1nc2c(=O)n(C3CC3)cnc2c1[C@](O)(c1cnc(C(F)(F)F)c(Cl)c1)C(F)(F)F | – | humanized SCID mice, blood | 1 mg/kg once daily, 6 days, infected | – | AUC(0-96 h) | 31.2 µM·h
Cn1cc(-c2cn3nccc3c(-c3cnn([C@]4(CC#N)C[C@@H](C#N)C4)c3)n2)cn1 | – | healthy humans fed, plasma | oral, 400 mg once daily, day 10, geometric mean | relative to: day 10 over day 1 | observed accumulation ratio | 1.2
CN(C)CCC(=O)Nc1ccc(C2CCCCC2)cc1 | hepatocyte stability | cryopreserved mouse hepatocytes | 1 µM | – | hepatic clearance | 71 mL/min/kg
C[C@@H](Oc1ccc(S(C)(=O)=O)cc1C(=O)N1C[C@@H]2C[C@]2(c2cc(C(F)(F)F)on2)C1)C(F)(F)F | – | young humans, plasma | oral, 50 mg once daily, single dose, geometric mean | – | half-life | 48.3 h
CO[C@H]1C[C@@H]2CC[C@@H](C)[C@@](O)(O2)C(=O)C(=O)N2CCCC[C@H]2C(=O)O[C@H]([C@H](C)C[C@@H]2CC[C@@H](OC(=O)NCCOCCOCCOCCOCCOCCOCCOCCOCCC(=O)N3CCc4cc(Cn5nc(-c6ccc7oc(N)nc7c6)c6c(N)ncnc65)ccc4C3)[C@H](OC)C2)C[C@@H](O)[C@H](C)/C=C(\C)[C@@H](O)[C@@H](OC)C(=O)[C@H](C)C[C@H](C)/C=C/C=C/C=C/1C | – | human, plasma | intravenous, 10 mg, Cycle 1, 1 h infusion, arithmetic mean | relative to: Day 15 over Day 1 | AUClast accumulation ratio | 1.4
CN(Cc1cccnc1)C(=O)c1ccc(C2CCCCC2)cc1 | hepatocyte stability | cryopreserved rat hepatocytes | 1 µM | – | hepatic clearance | 48 mL/min/kg
N#Cc1ccc2c(c1)[C@H]1CCCN(C(=O)c3ccc4[nH]cnc4c3)[C@H]1C2 | – | human, female | 360 mg, day 15 | – | androstenedione level | 8.2 nmol/L
OC[C@H]1O[C@@H](c2ccc(F)c(Cc3cc4ccccc4s3)c2)[C@H](O)[C@@H](O)[C@@H]1O | – | Japanese type 1 diabetes patients | oral, 50 mg/day, day 14 | – | hypoglycaemia adverse events | 6 % patients
CC(C)(C(=O)N1CCOc2c(C#N)cncc2C1)C(F)F | item: musculoskeletal disorders | healthy humans, both sexes | oral, 20 mg single dose | – | share of subjects with TEAE | 0%
CCOc1c([C@H](C)n2nc(C)c3c(N)ncnc32)cc(Cl)c(F)c1[C@@H]1CNC(=O)C1 | item: QRS ≤100 ms | previously treated B-cell malignancy | oral, 10 mg once daily, baseline below thresholds | – | ECG observations | 100%
C=CCn1c(=O)c2cnc(Nc3ccc(N4CCN(C)CC4)cc3)nc2n1-c1cccc(C(C)(C)O)n1 | – | human patients | oral, 125 mg twice daily, day 17, cycle 1, added: durvalumab 1500 mg iv | – | AUC(0-10 h) | 4.46 µM·h
C=C1CN2CCC[C@@]2(COc2nc3c4c(c(Cl)c(-c5nc(N)cc(C)c5C(F)(F)F)c(F)c4n2)OC[C@@H]2CN(C(=O)/C=C/c4nccc5c4CNCC5)CCN32)C1 | – | female CD-1 mouse, whole blood | intravenous, 1 mg/kg, DMSO 10%, PEG400 35%, water 55% | – | clearance | 2.9 mL/min/kg
O=C(Nc1cnccc1Cl)N1CCN(Cc2ccc3c(c2)OC(F)(F)O3)CC1 | multiple ascending dose | elderly men and women | 100 mg, treatment-emergent adverse events | – | hepatic enzyme increased | 33.3%
NC1(C(=O)N[C@@H](CCO)c2ccc(Cl)cc2)CCN(c2nc[nH]c3nccc2-3)CC1 | – | metastatic CRPC patients | 480 mg b.i.d., any grade, treatment-related, added: enzalutamide 160 mg daily | – | incidence of Amnesia | 0%
COc1cc(C(=O)NC2CCN(C)CC2)c(F)cc1Nc1ncc(C(F)(F)F)c(Oc2cccc3c2C(=O)N(C)C3)n1 | – | human patients, plasma | oral, 300 mg once daily repeated, geometric mean | – | dose-normalised AUC(tau) at steady state | 265 nmol·h/L per mg
CCO[C@H]1CCN(Cc2c(OC)cc(C)c3[nH]ccc23)[C@H](c2ccc(C(=O)O)cc2)C1 | – | human moderate hepatic impairment, plasma | oral, 200 mg single dose, median | – | unbound AUClast | 5050 ng·h/mL
CN(C)C(=N)N=C(N)N | item: vascular disorders | healthy men | oral, dose not given, 8 days, treatment-emergent, crossover trial | – | subjects with adverse event | 9.1%
CC(C)(c1ccc(O)cc1)c1ccc(O)cc1 | – | whole cow milk | 2000 nM nominal | – | dose fraction in milk fat | 39.4%
CN1CCN(C(=O)c2ccc(C3CCCCC3)cc2)CC1 | hepatocyte stability | cryopreserved human hepatocytes | 1 µM | – | hepatic clearance | 12 mL/min/kg

Compound | test | system | conditions | how to read | measurement | value
CC(C)C[C@H](NC(=O)CNC(=O)c1cc(Cl)ccc1Cl)B(O)O | item: Pneumonia | human newly diagnosed multiple myeloma | oral, dose not given, maintenance, grade 3, onset cycle 17 or later | – | treatment-emergent adverse events | 0%
O=C(Nc1nc2cccc(-c3ccc(CN4CCS(=O)(=O)CC4)cc3)n2n1)C1CC1 | item: non-cardiac chest pain | human rheumatoid arthritis patients | oral, 150 mg once daily, 4 weeks, regardless of relatedness | – | treatment-emergent adverse events | 0%
Nc1ncnc2c1c(-c1ccc(Oc3ccccc3)cc1)nn2[C@@H]1CCCN(C(=O)C(O)CO)C1 (some centres unmarked) | item: maximal concentration | B-LPD patients | hypertension risk threshold, ROC | – | specificity | 70.7%
Cc1ccc(Sc2ccccc2N2CCNCC2)c(C)c1 | item: Pollakiuria | healthy adult women | oral, 10 mg daily, 12 days | – | participants with TEAE | 0%
N#CCC(=O)Nc1ccc([C@H]2[C@@H](F)[C@@H](F)C[C@@H](F)[C@H]2F)cc1 | liver microsome stability | human liver microsomes | 1 µM, without NADPH | – | hepatic clearance | 3.9 mL/min/kg
CC(C)C[C@@H]1NC(=O)[C@H](CCCCN)NC(=O)[C@H](CC(N)=O)NC(=O)[C@H](CCCNC(=N)N)NC(=O)[C@H]([C@@H](C)O)NC(=O)[C@@H]2CSSC[C@@H]3NC(=O)[C@H]([C@@H](C)O)NC(=O)CNC(=O)CNC(=O)[C@H](C(C)C)NC(=O)[C@@H]4CSSC[C@H](NC(=O)[C@H](CCCCN)NC(=O)[C@H](CSSC[C@H](NC(=O)[C@H](C(C)C)NC(=O)[C@@H]5CCCN5C1=O)C(=O)NCC(=O)N[C@@H](CCC(=O)O)C(=O)N[C@@H]([C@@H](C)O)C(=O)N4)NC(=O)CNC(=O)[C@@H]1CCCN1C(=O)[C@H]([C@@H](C)O)NC(=O)[C@H](CC(N)=O)NC3=O)C(=O)N[C@@H](CO)C(=O)N[C@@H](Cc1c[nH]c3ccccc13)C(=O)N1CCC[C@H]1C(=O)N[C@@H](C(C)C)C(=O)N2 | HPLC | ammonium bicarbonate 0.1 M | 180 µM, 14 days, pH 9.0, 37 °C, deamidation stability | – | remaining peptide | 98.2 ± 2.6%
C[C@@H](N)C1CCN(S(=O)(=O)c2cccc3cnccc23)CC1 | – | healthy volunteers | 150 mg, fasted | – | participants with photophobia | 0%
O=C(NCCc1cccnc1)c1ccc([C@H]2[C@@H](F)[C@@H](F)C[C@@H](F)[C@H]2F)cc1 | hepatocyte stability | cryopreserved human hepatocytes | 1 µM | – | hepatic clearance | 13 mL/min/kg
CC(C)C[C@@H]1NC(=O)[C@H](C)NC(=O)[C@H](Cc2ccccc2)NCc2ccc([nH]2)CNC1=O | PAMPA | 2% lecithin in dodecane | 100 µM, 17 h, pH 6.4, 37 °C | – | -log Pe | 7.72 + 0.21
O=C(COCC(F)F)Nc1ccc(C2CCCCC2)cc1 | hepatocyte stability | cryopreserved rat hepatocytes | 1 µM | – | hepatic clearance | 49 mL/min/kg
CC(C)(O)c1cnc2ncc(-c3ccc(F)c(-c4c(F)cccc4C#N)c3)n2n1 | responding, conflict procedure | rhesus monkey | intravenous, up to 1.0 mg/kg | – | non-suppressed response rate | no effect
COc1ccnc(C(=O)NC(CO)C(=O)O)c1O (racemic) | soil adsorption | tested soils | geometric mean | – | KFoc | 315 mL/g
CN1CC(=O)NC1=N | ultrafiltration | normal rat serum | 37 °C | – | serum protein binding | 13 ± 7%
CC(C)n1c(Nc2cccnc2)nc2cnc(Nc3ccc(N4CCN(C)CC4)cc3)nc21 | item: eosinophil count increased | healthy male subjects | oral, 100 mg, study, added: itraconazole | – | subjects with adverse event | 0%
Cc1cc(NC2CCN(C(=O)OC3CCN(C(=O)/C=C/CN(C)C)C3)CC2)n2ncc(C(C)C)c2n1 (centres unmarked) | Phase I dose escalation CTCAE v4.0, item: abdominal pain | patients with advanced solid tumours | dose not given, TIW dosing any grade | – | patients with adverse event | 36%
COc1ncc(-c2nc3c(n2C(C)C)[C@H](c2ccc(Cl)cc2)N(c2cc(Cl)cn(C)c2=O)C3=O)c(OC)n1 | LC-MS/MS | human, plasma | oral, 4 mg, cycle 1 day 1, low-dose arm | – | AUC(0-last) | 215 ng·h/mL
CC(=O)N1CC(C(=O)Nc2ccc(C3CCCCC3)cc2)C1 | hepatocyte stability | cryopreserved mouse hepatocytes | 1 µM | – | hepatic clearance | 59 mL/min/kg
O=c1ccc2c(OCCCCOc3ccccc3)c3ccoc3cc2o1 | HPLC-MS | Lewis rats, plasma | oral gavage, 50 mg/kg daily, day 28, 24 h | – | trough plasma concentration | 310 ± 90 nM
CC(C)NCCCC[C@@H]1NC(=O)[C@H](Cc2ccc(O)cc2)NC(=O)[C@H](Cc2ccccc2)NC(=O)CC[C@H](C(=O)N[C@@H](CCCCNC(C)C)C(=O)N[C@@H](CCCCNC(=O)[C@H](CCC(=O)O)NC(=O)[C@H](CCC(=O)O)NC(=O)[C@H](CCC(=O)O)NC(=O)CN2CCN(CC(=O)O)CCN(CC(=O)O)CCN(CC(=O)O)CC2)C(N)=O)NC(=O)CNC(=O)[C@H](Cc2ccc3ccccc3c2)NC(=O)[C@@H](CCCNC(=N)N)NC1=O [gallium-68 labelled] | – | mouse with PC-3 xenograft, muscle | intravenous, 1 h | – | tissue uptake | 0.1 %ID/g
CCc1c(-c2ccccc2)c(-c2ccccc2)nn1-c1ccccc1-c1cccc(OCC(=O)O)c1 | – | female Sprague-Dawley rat, uterus homogenate | oral, 10 mg/kg, 1 h | – | concentration | 197 ng/mL
COCCOc1cnc2ccn([C@H](C)c3nnc4c(F)cc(-c5cnn(C)c5)cn34)c(=O)c2c1 | – | patients, plasma | oral, 100 mg twice daily, day 28, 200 per day | – | Cmax | 2140 ng/mL
Cc1ccc(O)c(-n2nc3ccccc3n2)c1 | – | human, both sexes | topical, dose not given, spray sunscreen, age 3-6 years, mean | – | daily dermal uptake | 1100 ng/kg body weight/day
Cc1ccc2c(c1)sc(-c1ccc(N(C)C)cc1)[n+]2C | – | PBS | free dye | – | excitation maximum wavelength | 408 nm
